# Published values of several laboratories.
# Compare with care: the assays were run in different laboratories. ± gives the spread as reported.
SMILES,assay,system,setting,scale,Tmax
N#Cc1cc(NC(=O)[C@H]2c3ccccc3C(=O)N(CC(F)(F)F)[C@@H]2c2cccnc2)ccc1F,,"human, plasma","oral, 600 mg, fed, median, interim",,3.4 h
CCNCc1cc(Nc2ccnc3cc(Cl)ccc23)ccc1O,,"human, both sexes, plasma","oral, dose not given, fixed-dose combination",,1.36 h
Cc1ncnc2c1ccn2[C@@H]1C[C@H](Oc2cc(C(F)F)c(F)c3c2CNCC3)[C@@H](O)[C@H]1O,,human,"oral, 6 mg twice daily",,1 h
CCCCCCCOc1ccc(CCC(N)(CO)CO)cc1C(F)(F)F.Cl,,"healthy human males, plasma","0.125 mg, day 21, median",,10 h
CC(C)n1c(/C=C/C(O)CC(O)CC(=O)O)c(-c2ccc(F)cc2)c2ccccc21 (stereo not shown),,human,"oral, 20 mg, alone, control phase",,1.2 ± 0.62 h
Cn1ncnc1[C@H]1c2n[nH]c(=O)c3cc(F)cc(c23)N[C@@H]1c1ccc(F)cc1,,"human patients, plasma","oral, 600 µg/m2 twice daily day 1, day 5, dose level DL3, median, added: temozolomide 20 mg/m2 daily days 2-6",,1 h
N#CCNC(=O)c1ccc(-c2ccnc(Nc3ccc(N4CCOCC4)cc3)n2)cc1,,"healthy human volunteers, plasma","oral, 200 mg single dose, day 1, fasted, given alone",,1.75 h
CC(C)[C@H](N)C(=O)NCCCS(=O)(=O)O,median,"human, plasma","oral, 171 mg once daily, day 1, fasted, capsule",,0.5 h
CNC(=O)c1ccc(-c2cnc3ncc(Cc4ccc5ncccc5c4)n3n2)cc1F,,human moderate hepatic impairment NCI,"oral, 200 mg single dose, median",,1 h
CC(F)(F)c1cc(F)ccc1-c1sc2cc(O)ccc2c1Oc1ccc(/C=C/C(=O)O)cc1,,"human, serum","oral, 600 mg once daily, cycle 1 day 28, fasted, median",,2.1 h
CCS(=O)(=O)Nc1ccc(Oc2ccc(F)cc2F)c(-c2cn(C)c(=O)c3[nH]ccc23)c1,,"human, plasma","oral, 2 mg, cycle 1 day 8, median",,4 h
COc1cc(C(=O)NC2CCN(C)CC2)c(F)cc1Nc1ncc(C(F)(F)F)c(Oc2cccc3c2C(=O)N(C)C3)n1,,"human patients, plasma","oral, 50 mg single dose, median",,1 h
CC1=C(c2cccc(O)c2)[C@H](c2ccc(OCCN3CC(CF)C3)cc2)Oc2ccc(O)cc21,,"human, plasma","oral, 1400 mg once daily, steady state median",,3 h
Cn1nnc2c(C(N)=O)ncn2c1=O,,"human patients, plasma","oral, 30 mg/m2, day 5, dose level DL4, median, added: talazoparib 600 µg/m2",,1 h
COc1cc(N2CCC(N3CCN(C)CC3)CC2)ccc1Nc1ncnc(Nc2ccccc2S(=O)(=O)C(C)C)n1,,"human, dose expansion arm, plasma","oral, 200 mg, day 28, mean",,3.49 h
CC(C)NC(=O)COc1cccc(-c2nc(Nc3ccc4[nH]ncc4c3)c3ccccc3n2)c1,,"human male, plasma","oral, 200 mg once daily, day 13, fed, median, added: rosuvastatin",,2 h
Cc1nc(-c2ccc(OCC(C)C)c(C#N)c2)sc1C(=O)O,,human,"oral, 20 mg once daily, added: verinurad 0 mg",,3 h
O=C1CC[C@H](N2Cc3cc(N4CCN(CC5CCN(c6ccc([C@@H]7c8ccc(O)cc8CC[C@@H]7c7ccccc7)cc6)CC5)CC4)ccc3C2=O)C(=O)N1,,"human, plasma","oral, 200 mg, added: rosuvastatin 10 mg",,7.5 h
CC(C)(C(=O)NC1C2CC3CC1CC(C(N)=O)(C3)C2)N1CCN(c2ccc(C(F)(F)F)cn2)CC1 (stereo not shown),,"human, plasma","10 mg once daily, 5 days, median",,1.6 h
COCCc1ccc(OCC(O)CNC(C)C)cc1 (stereo not shown),,human,,,4 h
O=C(NC[C@H](O)CO)c1ccncc1Nc1ccc(I)cc1F,,human,,,1 to 2.3 h
CC1(C)CC[C@]2(NC(=O)C(C)(F)F)CC[C@]3(C)[C@H](C(=O)C=C4[C@@]5(C)C=C(C#N)C(=O)C(C)(C)[C@@H]5CC[C@]43C)[C@@H]2C1,,"human, plasma",added: itraconazole,baseline: without itraconazole,no effect
COc1nnc2ccc(N3CCC(c4ccc(OCCN5CCN(C)C(=O)[C@H]5C)cc4)CC3)nn12,,"human, plasma","oral, 40 mg once daily, single dose, monotherapy",,1.05 h
C#C[C@]1(COP(=O)(O)OP(=O)(O)O)O[C@@H](n2cnc3c(N)nc(F)nc32)C[C@@H]1O,,"human, fed, PBMC","oral, 30 mg single",,15 h
Cc1ccc(C)c(OCCCC(C)(C)C(=O)O)c1,,"human, plasma","oral, dose not given, after lopinavir/ritonavir, geometric mean, added: lopinavir/ritonavir",,1.3 h
O=C(O)C[C@H](O)C[C@H](O)/C=C/c1c(C2CC2)nc2ccccc2c1-c1ccc(F)cc1,,"OATP1B1/1B3 humanized mouse, plasma","oral, 5 mg/kg",,0.9 h
COC(=O)N[C@@H](C)CNc1nccc(-c2cn(C(C)C)nc2-c2cc(Cl)cc(NS(C)(=O)=O)c2F)n1,,"human, plasma","oral, 50 mg, added: diltiazem 240 mg once daily",median,1.5 h
Cc1cc(C)c(CNC(=O)c2cc(Cl)c3c(c2C)O[C@@](C)([C@H]2CC[C@H](N(C)C)CC2)O3)c(=O)[nH]1,median,"healthy male humans, plasma","oral, 25 mg, day 1, alone, fluconazole group",,3 h
CC1(COc2ccc3c(c2)ncn3-c2ccc3cccc(N4CCC(N)CC4)c3n2)COC1,,"human patients, recurrent/progressive HGG or DIPG, serum","oral, 170 mg/m^2, day 1, median",,4 h
CCn1cc(C(=O)N2CCOCC2)c(=O)c2cc(NC3Cc4ccccc4C3)cnc21,,"human, fasted","oral tablet, 300 mg single dose, median",,1.75 h
CCN(CC)CCNC(=O)c1c(C)[nH]c(/C=C2\C(=O)Nc3ccc(F)cc32)c1C,,"human, plasma","oral, cycle 1 day 1",,1.8 h
Cl.O=C(NC1CCOCC1)c1csc([C@@H]2C[C@H]2NCC2CC2)c1,,"human, fed, plasma","oral, 30 mg single dose, median, high-fat breakfast",,3 h
COc1ncc(-c2nc3c(n2C(C)C)[C@H](c2ccc(Cl)cc2)N(c2cc(Cl)cn(C)c2=O)C3=O)c(OC)n1,"LC-MS/MS, noncompartmental","human, plasma","oral, 200 mg, C2D1, high-dose, median",,2.1 h
Cc1cn(C(=O)c2c(-c3c(Cl)cc(Cl)cc3Cl)noc2C(C)(C)F)c2cccc(/C=C/C(=O)O)c12,,human patients,"700 mg bid, cycle 8 day 1",,3.98 h
C#C[C@]1(CO)O[C@@H](n2cnc3c(N)nc(F)nc32)C[C@@H]1O,,"human, plasma","oral, 5 mg single dose",,0.5 h
[H]/N=C(/N)c1ccc(NCc2nc3cc(C(=O)N(CCC(=O)O)c4ccccn4)ccc3n2C)cc1,,"healthy human subjects, plasma","oral, 150 mg, dabigatran etexilate alone, median",,2 h
COc1ccc([C@@H](O)c2cc(-c3ncnc4cc(N5CCOCC5)ccc34)c(F)cc2Cl)nn1,,"human, plasma","oral, 150 mg once daily, single dose, median",,0.93 h
CN(CC#N)C(=O)C[C@H](Nc1nc2ccccc2[nH]1)c1cccc(C(F)(F)F)c1,,human,"intravenous infusion, 2 mg/kg, 10 mg/mL formulation",,0.51 ± 0.04 h
Fc1ccc([C@@H]2CCNC[C@H]2COc2ccc3c(c2)OCO3)cc1,,"human, CYP2D6 poor metabolizers","oral, 20 mg, steady state, geometric mean",,4.1 h
CN(C)C(=O)c1cc2cnc(Nc3ccc(N4CCNCC4)cn3)nc2n1C1CCCC1,,"human, severe renal impairment, plasma","oral, 400 mg, single dose, median",,2 h
Cc1cc(Nc2cc3ncccc3c(N[C@@H]3C[C@H]4CC[C@@H](C3)N4CCC#N)n2)n[nH]1,,"human, plasma","30 mg single dose, median",,0.79 h
CCOc1c([C@H](C)n2nc(C)c3c(N)ncnc32)cc(Cl)c(F)c1[C@@H]1CNC(=O)C1,,"human patients, plasma","oral, 15 mg once daily, cycle 1 day 15, monotherapy, median",,1 h
C[C@H](Oc1ccc(Br)cc1-c1ccon1)C(=O)O,"LC-MS/MS, non-compartmental","human, plasma","200 mg once daily, day 10, multiple ascending dose, median",,3 h
CCNCCCNC/C=C\CNCCCNCC,LC-MS/MS,"human cancer patients, plasma","intravenous infusion 60 min, 100 mg, median, cycle 1",,0.75 h
Cc1noc(C)c1-c1cc(C(O)(c2ccccn2)c2ccccn2)c2nc(C3CC3)[nH]c2c1,,"human male patients, fasted, plasma","oral, 2 mg once daily, cycle 1 day 8",,0.5 h
Cc1cc(-c2nnc(N)nc2-c2ccc(F)cc2)cc(Cl)n1,,"human patients, plasma","oral, 200 mg capsule, single dose, median",,2 h
C[C@@H](Nc1cc(F)cc(F)c1)c1cc(C(=O)N(C)C)cc2c(=O)cc(N3CCOCC3)oc12,item: M1 metabolite,human,"oral, 120 mg, single dose day 1, continuous BID regimen",,2.25 h
COc1ccc([C@@H]2CN(C(=O)[C@@H](O)CO)C[C@@]2(C)[C@@H](C)O)cc1OC1CN(c2ccc(C)cn2)C1,,"healthy humans, plasma","oral, 20 mg",,1 h
O=C(c1cc(Cc2n[nH]c(=O)c3ccccc23)ccc1F)N1CCN(C(=O)C2CC2)CC1,,"human, plasma","oral, 25 mg twice daily, cycle 1 day 1, dose level -1",,2 h
N[C@](CO)(CCc1ccc(Sc2cccc(OCc3ccccc3)c2)cc1Cl)COP(=O)(O)O,,"human fasted, blood","3 mg MOC, added: cyclosporin 100 mg b.i.d.",,6 h
CC(=O)N(C)[C@H]1CCN(C(=O)c2cnc3c(c2)C[C@](C)(c2ccc(F)cc2)N3)C1,,"healthy male human, plasma","oral, 15 mg once daily, median",,1 h
Cc1cc(-c2nccc3c2ccn3CC(=O)Nc2ccc(-c3cnccn3)cn2)ccn1,,"human, plasma","oral, 5 mg once daily, day 1, median",,1.25 h
